Measured values collected from several papers.
A part holds a random share of what one study measured.
UniProt P28482, sequence (whole entry, looked up): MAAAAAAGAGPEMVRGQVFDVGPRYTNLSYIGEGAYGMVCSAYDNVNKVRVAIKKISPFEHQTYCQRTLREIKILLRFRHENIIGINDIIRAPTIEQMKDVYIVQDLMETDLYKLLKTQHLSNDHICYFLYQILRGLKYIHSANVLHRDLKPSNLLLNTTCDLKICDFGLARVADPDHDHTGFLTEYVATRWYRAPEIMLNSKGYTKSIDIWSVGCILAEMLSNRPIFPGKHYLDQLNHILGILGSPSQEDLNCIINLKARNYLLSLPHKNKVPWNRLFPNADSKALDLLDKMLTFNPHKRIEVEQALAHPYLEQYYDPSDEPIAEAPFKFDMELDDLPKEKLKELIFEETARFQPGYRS
UniProt Q96NX5, sequence (whole entry, looked up): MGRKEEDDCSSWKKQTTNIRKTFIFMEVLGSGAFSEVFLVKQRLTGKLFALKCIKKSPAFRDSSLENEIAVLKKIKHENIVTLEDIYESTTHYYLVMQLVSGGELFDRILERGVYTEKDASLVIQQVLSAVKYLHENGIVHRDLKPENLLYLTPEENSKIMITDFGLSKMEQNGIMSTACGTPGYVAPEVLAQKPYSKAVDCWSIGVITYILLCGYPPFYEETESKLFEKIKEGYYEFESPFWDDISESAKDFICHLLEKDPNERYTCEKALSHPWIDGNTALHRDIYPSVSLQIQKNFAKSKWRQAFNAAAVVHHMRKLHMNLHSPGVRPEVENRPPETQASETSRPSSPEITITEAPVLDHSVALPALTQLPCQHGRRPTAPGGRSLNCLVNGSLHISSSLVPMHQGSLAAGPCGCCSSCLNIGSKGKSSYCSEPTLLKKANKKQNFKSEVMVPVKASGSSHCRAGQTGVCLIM
UniProt Q07002, sequence (whole entry, looked up): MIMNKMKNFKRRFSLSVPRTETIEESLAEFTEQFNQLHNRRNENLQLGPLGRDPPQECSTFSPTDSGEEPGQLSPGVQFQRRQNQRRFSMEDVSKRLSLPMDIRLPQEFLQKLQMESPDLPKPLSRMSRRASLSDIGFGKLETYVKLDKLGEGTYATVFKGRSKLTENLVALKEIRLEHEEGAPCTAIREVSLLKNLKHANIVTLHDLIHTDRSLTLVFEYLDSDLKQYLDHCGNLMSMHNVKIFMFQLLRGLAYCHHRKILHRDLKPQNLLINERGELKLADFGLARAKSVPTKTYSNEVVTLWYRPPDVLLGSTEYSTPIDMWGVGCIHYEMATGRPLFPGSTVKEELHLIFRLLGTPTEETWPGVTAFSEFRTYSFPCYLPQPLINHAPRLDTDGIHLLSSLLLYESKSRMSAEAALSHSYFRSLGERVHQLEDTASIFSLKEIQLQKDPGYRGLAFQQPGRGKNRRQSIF

Study 1 — observed: enzyme activity; action: inhibitor; concentration: 0.5 µM; baseline: control
Target: Tyrosine-protein kinase Mer (MERTK, Homo sapiens, UniProt Q12866)
UniProt Q12866, sequence (whole entry, looked up): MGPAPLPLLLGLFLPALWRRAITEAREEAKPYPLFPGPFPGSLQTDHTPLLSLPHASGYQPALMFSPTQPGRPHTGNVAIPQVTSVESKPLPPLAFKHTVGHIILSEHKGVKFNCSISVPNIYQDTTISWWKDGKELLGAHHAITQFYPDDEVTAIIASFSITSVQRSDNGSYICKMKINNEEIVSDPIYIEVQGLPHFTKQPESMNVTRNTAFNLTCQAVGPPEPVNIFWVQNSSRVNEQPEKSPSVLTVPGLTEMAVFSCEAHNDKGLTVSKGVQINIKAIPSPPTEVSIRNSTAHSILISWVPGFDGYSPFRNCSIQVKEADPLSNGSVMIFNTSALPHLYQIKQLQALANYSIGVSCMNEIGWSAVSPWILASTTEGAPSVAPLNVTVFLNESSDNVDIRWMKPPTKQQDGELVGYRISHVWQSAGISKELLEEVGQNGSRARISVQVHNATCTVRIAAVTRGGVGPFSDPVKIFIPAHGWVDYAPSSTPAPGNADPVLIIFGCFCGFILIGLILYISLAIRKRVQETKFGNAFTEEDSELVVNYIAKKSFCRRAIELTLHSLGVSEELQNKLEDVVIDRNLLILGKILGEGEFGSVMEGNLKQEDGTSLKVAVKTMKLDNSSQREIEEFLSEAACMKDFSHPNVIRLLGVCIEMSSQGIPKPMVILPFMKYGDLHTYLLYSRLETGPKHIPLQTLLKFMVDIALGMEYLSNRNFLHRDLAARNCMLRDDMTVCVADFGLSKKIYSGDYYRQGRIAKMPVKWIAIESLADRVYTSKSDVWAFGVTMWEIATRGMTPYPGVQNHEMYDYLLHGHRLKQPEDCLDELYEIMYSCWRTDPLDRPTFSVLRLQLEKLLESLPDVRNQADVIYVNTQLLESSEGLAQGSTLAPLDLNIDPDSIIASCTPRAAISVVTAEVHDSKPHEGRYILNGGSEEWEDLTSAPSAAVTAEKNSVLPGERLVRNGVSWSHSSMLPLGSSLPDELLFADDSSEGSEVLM
SMILES | remaining activity
N#CC(C#N)=C(N)/C(C#N)=C/c1ccc(O)cc1 | 93.5%
CNC(=O)c1cc(Oc2ccc(NC(=O)Nc3ccc(Cl)c(C(F)(F)F)c3)cc2)ccn1 | 88.2%
Nc1ccc2ncnc(NCCc3ccc(Oc4ccccc4)cc3)c2c1 | 102%
Cc1cccc(-c2[nH]c(C(C)(C)C)nc2-c2ccc3c(c2)OCO3)n1 | 82%
COc1cc2ncnc(Nc3ccc(F)c(Cl)c3)c2cc1OCCCN1CCOCC1 | 95.9%
Cn1sc(=O)n(Cc2ccccc2)c1=O | 92.8%
O=c1c2ccccc2[nH]c(=S)n1CCN1CCC(=C(c2ccc(F)cc2)c2ccc(F)cc2)CC1 | 97%
CN(C)c1ccc(C=C2C(=O)Nc3ccccc32)cc1 | 92.7%
Cc1ccc(Nc2nccc(N(C)c3ccc4c(C)n(C)nc4c3)n2)cc1S(N)(=O)=O | 57.2%
O=C(CCCc1ccc(-c2ccccc2F)cc1)Nc1ccc(O)cc1 | 98.8%
Oc1ccc(-c2nc(-c3ccncc3)c(-c3ccc(F)cc3)[nH]2)cc1 | 85.2%
CO[C@H]1C[C@@H]2CC[C@@H](C)[C@@](O)(O2)C(=O)C(=O)N2CCCC[C@H]2C(=O)O[C@H]([C@H](C)C[C@@H]2CC[C@@H](O)[C@H](OC)C2)CC(=O)[C@H](C)/C=C(\C)[C@@H](O)[C@@H](OC)C(=O)[C@H](C)C[C@H](C)/C=C/C=C/C=C/1C | 90.9%
CCOC(=O)c1c(C)[nH]c(/C=C2\C(=O)Nc3ccccc32)c1C | 69.3%
O=C(Nc1cccc(Nc2cc(Nc3cccc(C(F)(F)F)c3)ncn2)c1)C1CC1 | 97.3%
OCC(O)CCON=C1C(c2c(O)[nH]c3ccccc23)=Nc2ccccc21 (stereo not shown) | 49.4%

Study 2 — observed: cell-free assay; method: competition with immobilised ligand; concentration: 1 µM
SMILES: CN([C@@H]1CCc2c(CC(=O)O)c3ccccc3n2C1)S(=O)(=O)c1ccc(F)cc1
target | remaining binding [%]
Inhibitor of nuclear factor kappa-B kinase subunit beta (IKBKB, Homo sapiens, UniProt O14920) | 98
Mitogen-activated protein kinase 1 (MAPK1, Homo sapiens, UniProt P28482) | 97
Calcium/calmodulin-dependent protein kinase type 1G (CAMK1G, Homo sapiens, UniProt Q96NX5) | 100
Serine/threonine-protein kinase ULK2 (ULK2, Homo sapiens, UniProt Q8IYT8) | 100
Cyclin-dependent kinase 18 (CDK18, Homo sapiens, UniProt Q07002) | 100
STE20-like serine/threonine-protein kinase (SLK, Homo sapiens, UniProt Q9H2G2) | 100
Cyclin-dependent kinase-like 3 (CDKL3, Homo sapiens, UniProt Q8IVW4) | 85
Receptor-type tyrosine-protein kinase FLT3 (FLT3, Homo sapiens, UniProt P36888, F691L/ITD) | 96

Study 3 — observed: enzyme activity; action: inhibitor; concentration: 77 µM; baseline: untreated
Target: DNA polymerase theta, ATPase domain (POLQ, Homo sapiens, UniProt O75417)
UniProt O75417, sequence (whole entry, unmodified, looked up): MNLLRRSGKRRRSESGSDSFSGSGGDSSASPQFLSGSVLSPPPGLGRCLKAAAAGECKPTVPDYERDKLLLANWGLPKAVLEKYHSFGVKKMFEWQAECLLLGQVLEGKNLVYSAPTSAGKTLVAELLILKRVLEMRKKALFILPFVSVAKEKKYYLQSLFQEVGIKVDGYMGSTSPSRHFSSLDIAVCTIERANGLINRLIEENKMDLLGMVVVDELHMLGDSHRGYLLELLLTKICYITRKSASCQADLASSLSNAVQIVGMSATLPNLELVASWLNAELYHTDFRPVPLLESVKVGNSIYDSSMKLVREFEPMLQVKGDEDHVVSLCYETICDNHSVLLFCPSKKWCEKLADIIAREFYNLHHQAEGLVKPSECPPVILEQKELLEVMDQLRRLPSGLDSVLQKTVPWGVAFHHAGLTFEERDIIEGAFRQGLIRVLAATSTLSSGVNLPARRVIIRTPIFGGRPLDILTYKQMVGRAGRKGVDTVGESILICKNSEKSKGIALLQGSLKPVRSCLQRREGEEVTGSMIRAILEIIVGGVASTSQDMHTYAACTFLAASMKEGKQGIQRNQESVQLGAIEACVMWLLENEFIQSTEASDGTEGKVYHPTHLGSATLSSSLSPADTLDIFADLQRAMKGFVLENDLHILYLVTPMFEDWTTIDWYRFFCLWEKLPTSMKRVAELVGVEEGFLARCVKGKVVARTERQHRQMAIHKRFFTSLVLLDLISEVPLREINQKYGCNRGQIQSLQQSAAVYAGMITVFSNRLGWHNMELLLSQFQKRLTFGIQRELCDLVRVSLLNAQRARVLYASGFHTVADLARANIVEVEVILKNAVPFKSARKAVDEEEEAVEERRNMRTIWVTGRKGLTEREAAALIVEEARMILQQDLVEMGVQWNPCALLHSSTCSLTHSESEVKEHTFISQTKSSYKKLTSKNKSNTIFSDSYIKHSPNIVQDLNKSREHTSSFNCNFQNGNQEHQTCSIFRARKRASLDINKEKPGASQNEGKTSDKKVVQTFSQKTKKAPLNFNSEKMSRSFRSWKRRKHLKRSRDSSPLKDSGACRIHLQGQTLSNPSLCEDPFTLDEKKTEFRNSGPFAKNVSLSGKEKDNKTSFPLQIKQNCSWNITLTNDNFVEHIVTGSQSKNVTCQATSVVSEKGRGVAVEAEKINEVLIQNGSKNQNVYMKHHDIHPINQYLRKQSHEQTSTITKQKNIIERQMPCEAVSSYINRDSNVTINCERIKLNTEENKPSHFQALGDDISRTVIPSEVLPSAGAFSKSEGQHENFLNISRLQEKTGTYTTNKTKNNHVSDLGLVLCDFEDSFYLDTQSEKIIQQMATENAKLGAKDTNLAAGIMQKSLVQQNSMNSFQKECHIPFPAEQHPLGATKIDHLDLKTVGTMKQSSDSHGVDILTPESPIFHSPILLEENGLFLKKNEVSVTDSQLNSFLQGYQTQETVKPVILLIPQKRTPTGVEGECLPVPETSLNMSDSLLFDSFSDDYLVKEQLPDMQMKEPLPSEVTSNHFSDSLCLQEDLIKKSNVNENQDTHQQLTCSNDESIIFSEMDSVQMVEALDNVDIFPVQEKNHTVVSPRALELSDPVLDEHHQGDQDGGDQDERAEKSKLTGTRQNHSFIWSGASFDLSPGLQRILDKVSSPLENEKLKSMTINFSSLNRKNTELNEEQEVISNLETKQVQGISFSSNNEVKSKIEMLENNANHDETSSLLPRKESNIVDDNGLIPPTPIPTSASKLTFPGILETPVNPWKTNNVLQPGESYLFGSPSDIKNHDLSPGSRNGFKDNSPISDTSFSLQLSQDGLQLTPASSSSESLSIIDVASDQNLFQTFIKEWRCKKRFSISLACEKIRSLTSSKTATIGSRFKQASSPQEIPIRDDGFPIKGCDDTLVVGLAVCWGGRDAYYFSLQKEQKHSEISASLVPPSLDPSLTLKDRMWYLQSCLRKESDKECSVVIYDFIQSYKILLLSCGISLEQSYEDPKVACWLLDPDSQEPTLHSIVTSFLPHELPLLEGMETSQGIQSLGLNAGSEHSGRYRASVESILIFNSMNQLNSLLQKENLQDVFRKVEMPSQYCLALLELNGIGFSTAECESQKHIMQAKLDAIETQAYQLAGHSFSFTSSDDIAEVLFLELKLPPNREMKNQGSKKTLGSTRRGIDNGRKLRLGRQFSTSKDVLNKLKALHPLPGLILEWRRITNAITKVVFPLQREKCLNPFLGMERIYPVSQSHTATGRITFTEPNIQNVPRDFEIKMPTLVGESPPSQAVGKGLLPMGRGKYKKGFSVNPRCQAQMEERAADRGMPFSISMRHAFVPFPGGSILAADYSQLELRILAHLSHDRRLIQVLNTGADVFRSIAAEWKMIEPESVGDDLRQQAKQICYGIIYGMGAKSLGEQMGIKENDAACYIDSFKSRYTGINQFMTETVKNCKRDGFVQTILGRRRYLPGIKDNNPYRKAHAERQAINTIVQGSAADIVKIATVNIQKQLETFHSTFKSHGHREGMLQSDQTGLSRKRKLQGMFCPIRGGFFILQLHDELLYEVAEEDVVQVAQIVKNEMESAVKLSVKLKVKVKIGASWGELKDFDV
Compound | remaining activity
COc1ccc(-c2cnc3c(-c4ccsc4)cnn3c2)cc1 | 89.5%
CCNC(=O)c1noc(-c2cc(Cl)c(O)cc2O)c1-c1ccc(OC)cc1 | 90.3%
CCCCC(=O)O[C@H]1CC[C@H]2[C@@H]3CCc4cc(O)ccc4[C@H]3CC[C@]12C | 99.3%
COc1cc(OC)c(/C=C/S(=O)(=O)Cc2ccc(OC)c(NCC(=O)O)c2)c(OC)c1 | 100%
Oc1cc2c(cc1O)C(c1ccccc1)CNCC2 (stereo not shown) | 105%
CC(=O)N(O)CCCCCNC(=O)CCC(=O)N(O)CCCCCNC(=O)CCC(=O)N(O)CCCCCN | 96.7%

Study 4 — species: mouse; medium: microsomes or S9; concentration: 2 µM; time: 0.5 h
SMILES | remaining compound [%]
COc1ccc(CCNC(=O)C2Cc3ccccc3CN2S(=O)(=O)c2cccs2)cc1OC (stereo not shown) | 0.0649
O=C(NCc1nc(-c2ccc[nH]c2=O)no1)c1ccc2[nH]c(=O)oc2c1 | > 100
CC(C)Cc1nc2nccc(-c3ccncc3)n2n1 | 32.1
CN(C)Cc1c(N)n(Cc2ccco2)c(=O)[nH]c1=O | 68.7
Cc1cccc(C)c1NC(=O)C1(NC(=O)c2cc[nH]n2)CCCCC1 | 59.9

Excerpt of the above (study 4):
SMILES | remaining compound [%]
COc1ccc(CCNC(=O)C2Cc3ccccc3CN2S(=O)(=O)c2cccs2)cc1OC (stereo not shown) | 0.0649
O=C(NCc1nc(-c2ccc[nH]c2=O)no1)c1ccc2[nH]c(=O)oc2c1 | > 100
CC(C)Cc1nc2nccc(-c3ccncc3)n2n1 | 32.1
CN(C)Cc1c(N)n(Cc2ccco2)c(=O)[nH]c1=O | 68.7
Cc1cccc(C)c1NC(=O)C1(NC(=O)c2cc[nH]n2)CCCCC1 | 59.9
